Experimental data from different studies.
Protocols differ between the studies behind these lines. “And” joins repeats or separate records; there may be more than shown. ± gives the spread as reported.
ALB: Albumin (ALB, Homo sapiens, UniProt P02768)
Sequence of UniProt P20813 (whole entry, looked up): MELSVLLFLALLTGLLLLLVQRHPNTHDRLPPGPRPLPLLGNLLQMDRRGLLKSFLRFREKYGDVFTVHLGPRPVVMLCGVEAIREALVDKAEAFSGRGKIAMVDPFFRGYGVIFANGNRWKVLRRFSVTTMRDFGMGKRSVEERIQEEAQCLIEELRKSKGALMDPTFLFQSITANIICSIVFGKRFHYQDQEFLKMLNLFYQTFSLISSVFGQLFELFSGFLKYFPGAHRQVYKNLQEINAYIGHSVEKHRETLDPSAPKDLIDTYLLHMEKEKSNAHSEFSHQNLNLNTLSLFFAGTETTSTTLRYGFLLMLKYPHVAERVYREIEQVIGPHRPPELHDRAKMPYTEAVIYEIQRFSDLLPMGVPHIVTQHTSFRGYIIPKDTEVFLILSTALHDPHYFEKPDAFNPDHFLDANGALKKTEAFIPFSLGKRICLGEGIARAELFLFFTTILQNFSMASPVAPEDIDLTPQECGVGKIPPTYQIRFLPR
Sequence of UniProt P08183 (whole entry, looked up): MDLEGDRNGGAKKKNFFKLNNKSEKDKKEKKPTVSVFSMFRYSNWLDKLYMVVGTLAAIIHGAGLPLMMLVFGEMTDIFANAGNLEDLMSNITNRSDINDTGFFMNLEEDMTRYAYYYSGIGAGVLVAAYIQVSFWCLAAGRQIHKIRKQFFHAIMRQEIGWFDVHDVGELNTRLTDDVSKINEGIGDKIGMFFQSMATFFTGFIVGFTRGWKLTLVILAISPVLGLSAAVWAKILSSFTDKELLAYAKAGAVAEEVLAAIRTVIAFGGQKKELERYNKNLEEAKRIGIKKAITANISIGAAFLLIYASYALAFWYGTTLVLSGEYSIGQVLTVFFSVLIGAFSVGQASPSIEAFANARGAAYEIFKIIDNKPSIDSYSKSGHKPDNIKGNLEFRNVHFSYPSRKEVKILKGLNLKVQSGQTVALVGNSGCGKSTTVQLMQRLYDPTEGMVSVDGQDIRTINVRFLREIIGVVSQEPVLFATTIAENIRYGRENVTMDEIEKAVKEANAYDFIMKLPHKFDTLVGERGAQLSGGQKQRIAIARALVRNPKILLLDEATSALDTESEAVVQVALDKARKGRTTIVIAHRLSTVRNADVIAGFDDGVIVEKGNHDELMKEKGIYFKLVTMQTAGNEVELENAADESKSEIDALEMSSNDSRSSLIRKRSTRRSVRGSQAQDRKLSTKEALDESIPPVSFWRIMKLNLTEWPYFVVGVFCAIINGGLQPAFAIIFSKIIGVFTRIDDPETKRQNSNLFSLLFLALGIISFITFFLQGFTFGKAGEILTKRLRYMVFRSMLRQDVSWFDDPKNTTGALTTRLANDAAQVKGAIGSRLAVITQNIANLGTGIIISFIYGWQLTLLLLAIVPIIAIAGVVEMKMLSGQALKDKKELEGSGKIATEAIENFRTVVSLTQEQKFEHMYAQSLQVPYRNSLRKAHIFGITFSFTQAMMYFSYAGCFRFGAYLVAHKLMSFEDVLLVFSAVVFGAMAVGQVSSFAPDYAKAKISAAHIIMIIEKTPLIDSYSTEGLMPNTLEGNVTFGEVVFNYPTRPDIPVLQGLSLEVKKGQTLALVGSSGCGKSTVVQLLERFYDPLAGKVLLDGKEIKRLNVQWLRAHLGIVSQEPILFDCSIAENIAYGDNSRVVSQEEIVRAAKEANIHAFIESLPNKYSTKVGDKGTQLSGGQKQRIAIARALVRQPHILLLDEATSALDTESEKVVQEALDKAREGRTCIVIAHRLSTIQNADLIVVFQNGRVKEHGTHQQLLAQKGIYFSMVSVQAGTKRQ

Compound | tested on | test | system | conditions | scale | quantity | value
CNc1nc(N)nc2c1ncn2[C@@H]1O[C@H](CO[P@](=O)(O)N[C@@H](C)C(=O)O)[C@@H](O)[C@@]1(C)F | ABCB1 (Homo sapiens, UniProt P08183) | bidirectional transport | LLC-PK1, human MDR1, transfected with | 10 µM, with: zosuquidar 1 µM | – | Papp B to A | 6.08 ± 0.57 ×10⁻⁶ cm/s
O=C1NC2(CC2)COc2ncc(F)cc2[C@H]2COCCN2c2ccn3ncc1c3n2 | Salmonella typhimurium | Ames test | TA100 | 150 µg/plate, 48 h, with: rat liver S9 | – | revertant colonies | 79 ± 5 revertants/plate
COc1cccc(OC)c1-c1cc(C(=O)NC2(C(=O)O)C3CC4CC(C3)CC2C4)nn1-c1ccc(C(=O)N(C)CCOCCOCCN(C)C(=O)[C@H](CCCCNC(=O)[C@H](CC(C)C)NC(=O)C2OC2C(=O)O)NC(=O)CN2CCN(CC(=O)[O-])CCN(CC(=O)[O-])CCN(CC(=O)[O-])CC2)cc1C(C)C.[177Lu+3] (mixture of isomers) | HT-29 tumour model | – | host not given, stomach | 4 h, tumour-bearing | – | tracer uptake | 0.83 %ID/g
O=C(Oc1cc(OC(=O)c2cc(O)c(O)c(O)c2)c2ccccc2c1)c1cc(O)c(O)c(O)c1 | HSV-2 strain 333 | viral DNA replication, qPCR | Vero | – | reference: CC50 over IC50 | therapeutic index | 24.2
CNC(=O)C1CCCN(C(=O)C2CC3CCC2N3C(=O)[C@@H]2C[C@@H](O)CN2C(=O)NCc2cccc(Cl)c2F)C1 (mixture of isomers) | Cytochrome P450 2B6 (CYP2B6, Homo sapiens, UniProt P20813) | preincubation with NADPH | human | 0.206 µM | reference: negative control | remaining activity | 100% and 99.8% and 97.8%
Cc1nc(Nc2ncc(C(=O)Nc3c(C)cccc3Cl)s2)cc(N2CCN(C(=O)CCOCCNC(=O)CN)CC2)n1 | K562 | cell growth or viability, CCK-8 | – | 2.5 nM | – | viability | 83% and 79%
COC(=O)Nc1nc2cc(C(O)c3ccc(F)cc3)ccc2[nH]1 (stereo not shown) | Salmonella typhimurium | Ames preincubation test | TA100 | 218.8 µg/plate, without S9 | – | revertants | 164 revertants/plate
CN1CCN(c2ccc3[nH]c(-c4ccc5[nH]c(-c6ccc(OCCCCNC(=O)c7ccc8c(c7)C(=O)OC87c8ccc(N(C)C)cc8[Si](C)(C)c8cc(N(C)C)ccc87)cc6)nc5c4)nc3c2)CC1 | ALB | binding, fluorescence titration | PBS | 1 h | – | Kd | 25 ± 6 µM
CCc1c(-c2ccc3[nH]ncc3c2)cnc(N)c1-c1ccc(O)cc1 | CHP-212 resistant sublines (heterozygous USP7 V517F) | cell viability | – | 25 µM | – | viability | 43.4% and 52.8%
COc1cccc(OC)c1-c1cc(C(=O)NC2(C(=O)O)C3CC4CC(C3)CC2C4)nn1-c1ccc(C(=O)N(C)CCCN(C)C(=O)[C@H](CCCCNC(=O)[C@H](CC(C)C)NC(=O)C2OC2C(=O)O)NC(=O)CN2CCN(CC(=O)[O-])CCN(CC(=O)[O-])CCN(CC(=O)[O-])CC2)cc1C(C)C.[177Lu+3] (mixture of isomers) | HT-29 tumour model | – | host not given, pancreas | 7 days, tumour-bearing | – | tracer uptake | 0.05 %ID/g
CN(C)c1ccc2c(c1)[Si](C)(C)c1cc(N(C)C)ccc1C21OC(=O)c2cc(C(=O)O)ccc21 | ALB | binding, fluorescence titration | PBS | – | – | Kd | 34 ± 3 µM
O=C1C2CC3CC1CC(C(=O)N1CCN(c4ccc([N+](=O)[O-])c5ncccc45)CC1)(C3)C2 | Salmonella typhimurium | Ames test | TA97a | 0.02 µg/well, with S9 | – | mean revertant colonies | 23 colonies/well
CC(C)Cc1ccc(C(C)C(=O)N[C@@H](CCCCNC(=O)CCOCCOCCOCCOCCOCCOCCNC(=O)CN2CCN(CC(=O)[O-])CCN(CC(=O)[O-])CCN(CC(=O)[O-])CC2)C(=O)Nc2cccc3c(C(=O)NCC(=O)N4CC(F)(F)C[C@H]4C#N)ccnc23)cc1.[177Lu+3] (stereo partly shown) | U-87 MG tumour model | – | host not given, heart | 1 h, tumour-bearing | – | tracer uptake | 4.08 %ID/g
O=C(Nc1cnccc1-c1ccc([18F])cc1)c1ccnc(NC(=O)C2CC2)c1 | – | – | mice, transgenic, GSK-3β, early-stage, skin | intravenous, dose not given, 120 min, with: tariquidar 15 mg/kg i.v. pre-dose | – | SUV | 0.19
CN1CCN(c2ccc3[nH]c(-c4ccc5[nH]c(-c6ccc(OCCCCNC(=O)c7ccc8c(c7)C7(OC8=O)c8ccc(N(C)C)cc8C(C)(C)c8cc(N(C)C)ccc87)cc6)nc5c4)nc3c2)CC1 | ALB | binding, fluorescence titration | PBS | 1 h | – | Kd | 31 ± 9 µM
COc1cccc(OC)c1-c1cc(C(=O)NC2(C(=O)O)C3CC4CC(C3)CC2C4)nn1-c1ccc(C(=O)NCCNC(=O)[C@H](CCCCNC(=O)[C@H](CC(C)C)NC(=O)C2OC2C(=O)O)NC(=O)CN2CCN(CC(=O)[O-])CCN(CC(=O)[O-])CCN(CC(=O)[O-])CC2)cc1C(C)C.[177Lu+3] (mixture of isomers) | HT-29 tumour model | – | host not given, pancreas | 4 h, tumour-bearing | – | tracer uptake | 0.66 %ID/g
CC(C)OCCOCc1ccc(OCC(O)CN(N=O)C(C)C)cc1 (stereo not shown) | Salmonella typhimurium | Ames test | TA1537 | 1580 µg/plate, 30 % rat S9 | reference: solvent control | revertant fold increase | 1.1 fold
C=C(NC(=O)c1csc(-c2nc3c(cc2O)-c2nc(cs2)C(=O)NC(C(C)O)C(=O)NC(=C(C)OC)c2nc(cs2)C(=O)NC2c4nc(cs4)C(=O)NC(COC(=O)c4c5c6c(cccc6n4O)COC(=O)C(OC4CC(C)(O)C(N(C)C)C(C)O4)C2OC5)c2nc-3cs2)n1)C(N)=O (stereo not shown) | – | – | ICR mice, Streptococcus pneumoniae ATCC 49169 infected, immunocompromised, blood | intravenous, 16 mg/kg/day once daily | – | Cmax | 708 ng/mL
CCN(CC)CC#CCNc1ccnc2cc(Cl)ccc12 | Salmonella typhimurium | mini-Ames test | TA97a | 62.5 µg/well, with rat liver S9 | – | revertants per well | 17
N[C@@H](CNC(=O)N[C@@H](CS)C(=O)NCC(=O)O)C(=O)O | RPMI-2650 | – | – | A-to-B, air-liquid interface | – | apparent permeability | 35.3 ×10⁻⁶ cm/s
N#C[C@@H]1CC(F)(F)CN1C(=O)CNC(=O)c1ccnc2c(NC(=O)[C@@H](N)CCCCNC(=O)CCOCCOCCOCCOCCOCCOCCNC(=O)CN3CCN(CC(=O)[O-])CCN(CC(=O)[O-])CCN(CC(=O)[O-])CC3)cccc12.[177Lu+3] | U-87 MG tumour model | – | host not given, muscle | 48 h, tumour-bearing | – | tracer uptake | 0.04 %ID/g
Cc1nc(N)nc2c1C(=O)N[C@@H](c1ccc(F)cc1-c1cccc(O[11CH3])n1)C2 | – | radioligand, ex vivo biodistribution | mouse, MDA-MB-231 xenograft, red blood cells | 60 min p.i. | – | SUV | 0.9 ± 0.1

Some of these lines once more:
Compound | tested on | test | system | conditions | scale | quantity | value
O=C(Nc1cnccc1-c1ccc([18F])cc1)c1ccnc(NC(=O)C2CC2)c1 | – | – | mice, transgenic, GSK-3β, early-stage, skin | intravenous, dose not given, 120 min, with: tariquidar 15 mg/kg i.v. pre-dose | – | SUV | 0.19
CCN(CC)CC#CCNc1ccnc2cc(Cl)ccc12 | Salmonella typhimurium | mini-Ames test | TA97a | 62.5 µg/well, with rat liver S9 | – | revertants per well | 17
Cc1nc(Nc2ncc(C(=O)Nc3c(C)cccc3Cl)s2)cc(N2CCN(C(=O)CCOCCNC(=O)CN)CC2)n1 | K562 | cell growth or viability, CCK-8 | – | 2.5 nM | – | viability | 83% and 79%
